Experimental data of several laboratories.
A part holds a random share of what one study measured. Substitutions count along the parent as printed.
Sequence of UniProt P51965 (whole entry, looked up): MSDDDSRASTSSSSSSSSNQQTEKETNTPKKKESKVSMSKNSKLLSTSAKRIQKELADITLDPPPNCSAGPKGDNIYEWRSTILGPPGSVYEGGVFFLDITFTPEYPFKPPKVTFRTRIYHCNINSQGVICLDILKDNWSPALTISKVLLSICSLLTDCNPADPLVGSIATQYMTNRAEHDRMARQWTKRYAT
Sequence of UniProt P61088 (whole entry, looked up): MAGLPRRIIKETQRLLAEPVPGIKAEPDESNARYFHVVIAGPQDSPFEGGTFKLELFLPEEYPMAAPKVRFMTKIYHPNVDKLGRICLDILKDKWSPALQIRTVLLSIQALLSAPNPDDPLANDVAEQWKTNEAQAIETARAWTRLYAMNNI
Sequence of UniProt P62256 (whole entry, looked up): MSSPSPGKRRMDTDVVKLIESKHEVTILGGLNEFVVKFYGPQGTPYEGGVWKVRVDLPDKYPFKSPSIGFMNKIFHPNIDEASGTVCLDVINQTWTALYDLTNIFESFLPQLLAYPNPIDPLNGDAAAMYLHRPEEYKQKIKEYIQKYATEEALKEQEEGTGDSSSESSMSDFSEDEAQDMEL
Sequence of UniProt O14933 (whole entry, looked up): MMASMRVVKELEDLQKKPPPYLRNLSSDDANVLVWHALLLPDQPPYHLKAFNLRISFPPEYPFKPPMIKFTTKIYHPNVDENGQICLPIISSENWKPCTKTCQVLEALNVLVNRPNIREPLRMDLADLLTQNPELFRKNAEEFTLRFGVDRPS
Sequence of UniProt Q15819 (whole entry, looked up): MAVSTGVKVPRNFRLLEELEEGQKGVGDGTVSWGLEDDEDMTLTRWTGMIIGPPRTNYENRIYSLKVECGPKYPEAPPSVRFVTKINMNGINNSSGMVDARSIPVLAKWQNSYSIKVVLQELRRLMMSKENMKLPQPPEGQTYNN
Sequence of UniProt P49427 (whole entry, looked up): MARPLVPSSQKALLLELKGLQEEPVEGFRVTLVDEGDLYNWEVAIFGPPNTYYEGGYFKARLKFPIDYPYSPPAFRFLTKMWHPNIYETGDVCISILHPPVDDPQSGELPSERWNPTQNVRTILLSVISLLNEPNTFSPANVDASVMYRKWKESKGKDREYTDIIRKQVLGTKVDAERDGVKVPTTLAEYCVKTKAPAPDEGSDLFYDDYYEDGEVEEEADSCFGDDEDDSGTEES
Sequence of UniProt Q8WVN8 (whole entry, looked up): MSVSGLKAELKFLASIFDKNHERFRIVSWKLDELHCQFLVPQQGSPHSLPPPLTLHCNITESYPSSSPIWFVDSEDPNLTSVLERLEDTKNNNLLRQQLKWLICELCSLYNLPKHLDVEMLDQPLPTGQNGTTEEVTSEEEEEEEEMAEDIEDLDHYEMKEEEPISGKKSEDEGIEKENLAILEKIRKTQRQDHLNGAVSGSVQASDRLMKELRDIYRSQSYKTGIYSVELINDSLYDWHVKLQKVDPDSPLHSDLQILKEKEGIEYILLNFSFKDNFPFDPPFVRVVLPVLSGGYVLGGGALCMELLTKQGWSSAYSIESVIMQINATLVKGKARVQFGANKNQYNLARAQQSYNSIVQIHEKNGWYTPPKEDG
Sequence of UniProt P60604 (whole entry, looked up): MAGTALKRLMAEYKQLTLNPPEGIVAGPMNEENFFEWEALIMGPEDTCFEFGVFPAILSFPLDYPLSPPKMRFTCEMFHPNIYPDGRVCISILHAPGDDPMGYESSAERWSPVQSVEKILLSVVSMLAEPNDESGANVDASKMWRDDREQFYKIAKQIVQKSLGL
Sequence of UniProt Q13404 (whole entry, looked up): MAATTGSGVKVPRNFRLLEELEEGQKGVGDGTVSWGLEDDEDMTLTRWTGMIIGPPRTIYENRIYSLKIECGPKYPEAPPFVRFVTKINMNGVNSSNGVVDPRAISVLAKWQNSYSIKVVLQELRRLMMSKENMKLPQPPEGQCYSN
Sequence of UniProt Q5VVX9 (whole entry, looked up): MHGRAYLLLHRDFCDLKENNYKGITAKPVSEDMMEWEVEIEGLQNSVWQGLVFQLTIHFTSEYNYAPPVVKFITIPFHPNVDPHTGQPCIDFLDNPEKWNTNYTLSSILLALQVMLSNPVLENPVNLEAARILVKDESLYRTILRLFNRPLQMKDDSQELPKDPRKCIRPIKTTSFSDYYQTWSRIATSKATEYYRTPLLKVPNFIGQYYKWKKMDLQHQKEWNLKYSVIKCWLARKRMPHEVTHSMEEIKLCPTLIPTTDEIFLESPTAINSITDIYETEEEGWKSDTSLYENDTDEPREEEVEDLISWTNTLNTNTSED
Sequence of UniProt Q96LR5 (whole entry, looked up): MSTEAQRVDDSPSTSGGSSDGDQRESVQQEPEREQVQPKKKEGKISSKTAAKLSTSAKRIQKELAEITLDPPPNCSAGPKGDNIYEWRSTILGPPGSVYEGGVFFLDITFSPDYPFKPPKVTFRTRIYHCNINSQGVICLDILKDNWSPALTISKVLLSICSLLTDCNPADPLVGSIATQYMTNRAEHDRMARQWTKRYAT

Study 1
Target: NFE2L1, bZIP domain (human)
Method: DHFR protein complementation
Sample: yeast
Notes: single substitutions, most at no-binding floor
Reference: wild-type JUN-FOS pair
Direction: higher = stronger binding
Starting sequence: JUN, bZIP domain (human); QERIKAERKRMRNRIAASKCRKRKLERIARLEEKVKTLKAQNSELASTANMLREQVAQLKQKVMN; partner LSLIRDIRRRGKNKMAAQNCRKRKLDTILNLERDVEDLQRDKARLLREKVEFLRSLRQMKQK
| Variant | binding fitness |
| --- | --- |
| N42I | -1.58 natural log |
| T48P | -1.48 natural log |
| M51K | -1.54 natural log |
| T48C | -1.51 natural log |
| N42G | -1.46 natural log |
| V35K | -1.54 natural log |
| E33W | -1.41 natural log |
| E54I | -1.38 natural log |
| S47I | -1.48 natural log |
| E54D | -1.48 natural log |
| K39F | -1.55 natural log |
| A40N | -1.32 natural log |
| R53V | -1.3 natural log |
| V35T | -1.24 natural log |

Study 2
Target: Histone acetyltransferase KAT6A, winged helix 2, GST fusion (KAT6A, Homo sapiens, UniProt Q92794, residues 85-181)
Method: protein binding microarray
Molecule type: double-stranded DNA, one strand shown
Sample: in vitro
Tested at: not given
Notes: 8-mer, flanks averaged, mean of 2 arrays, mostly near background
Reference: not given
Direction: higher = stronger binding
Construct (chain): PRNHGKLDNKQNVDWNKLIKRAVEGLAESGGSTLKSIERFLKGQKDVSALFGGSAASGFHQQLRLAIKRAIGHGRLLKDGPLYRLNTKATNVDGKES
| Strand | E-score |
| --- | --- |
| CAAAACGC | -0.0423 |
| AGCGCATC | 0.0803 |
| CCGATACC | -0.00308 |
| GAAGTGGC | -0.0423 |
| ACAGACCG | -0.0654 |
| CATACCGG | -0.0525 |
| ATTTTTGG | 0.0463 |
| ATCCGACA | 0.0594 |
| AGTGCAAT | 0.0415 |
| CGAATCAA | 0.124 |
| CAAGAGAG | 0.117 |
| GTGCCCGA | 0.0282 |
| CTGACAAA | 0.127 |
| CGCGCGCG | 0.3 |
| AGGAGATG | -0.132 |
| ATTATCCG | 0.018 |
| GCAGCCCC | 0.188 |
| GAGAGAGA | -0.103 |
| CGTTTTAA | 0.106 |
| CGGGGATC | 0.0439 |
| CGAGTCTA | -0.273 |
| AGCGTCGA | 0.0302 |
| ACCGCCAC | 0.0309 |
| ATTATTTC | 0.107 |
| CGTGCATA | -0.0284 |

Study 3
Target: CCNF, cyclin fold, Cln2 fusion (human)
Method: yeast growth competition, sequencing
Sample: yeast
Notes: strong parent motif
Reference: not given
Direction: higher = stronger binding
Starting sequence: BORA docking peptide (human); SSLRRKLFLDGNG
| Variant | normalised enrichment score |
| --- | --- |
| L9F | 8.21 |
| G13A | 4.92 |
| S2A | 5.41 |
| R4A | 4.2 |
| R5A | 1.01 |
| F8L | 3.57 |
| D10A | 1.9 |
| F8A | 2.24 |
| G11A | 4.98 |
| R5K F8L | 0.936 |
| R5A L7A | -0.227 |

Study 4
Sequence: ANYISAHTKDCPKCNICIEKNGGCNHMQCSKCKHDFCWMCLGDWKTHGSE (ARIH2 RING domain (UniProt O95376))
Method: yeast two-hybrid
Molecule type: peptide
Sample: yeast
Notes: mostly zero background
Reference: not given
Direction: higher = stronger interaction
| target | lacZ reporter activity |
| --- | --- |
| CDC34 UBC core domain (UniProt P49427) | 0 |
| UBE2N UBC core domain (UniProt P61088) | 0 |
| UBE2V2 UBC core domain (UniProt Q15819) | 0 |
| UBE2H UBC core domain (UniProt P62256) | 0 |
| UBE2Q2 UBC core domain (UniProt Q8WVN8) | 0 |
| UBE2E2 UBC core domain (UniProt Q96LR5) | 0 |
| UBE2L6 UBC core domain (UniProt O14933) | 0 |
| UBE2V1 UBC core domain (UniProt Q13404) | 0 |
| UBE2E1 UBC core domain (UniProt P51965) | 0 |
| UBE2G2 UBC core domain (UniProt P60604) | 0 |
| UBE2U UBC core domain (UniProt Q5VVX9) | 14000 |

Study 5
Target: RING finger protein unkempt homolog, zinc fingers 1-6, GST-SBP tag (UNK, Homo sapiens, UniProt Q9C0B0, residues 30-357)
Sequence of UniProt Q9C0B0 (30-357, looked up): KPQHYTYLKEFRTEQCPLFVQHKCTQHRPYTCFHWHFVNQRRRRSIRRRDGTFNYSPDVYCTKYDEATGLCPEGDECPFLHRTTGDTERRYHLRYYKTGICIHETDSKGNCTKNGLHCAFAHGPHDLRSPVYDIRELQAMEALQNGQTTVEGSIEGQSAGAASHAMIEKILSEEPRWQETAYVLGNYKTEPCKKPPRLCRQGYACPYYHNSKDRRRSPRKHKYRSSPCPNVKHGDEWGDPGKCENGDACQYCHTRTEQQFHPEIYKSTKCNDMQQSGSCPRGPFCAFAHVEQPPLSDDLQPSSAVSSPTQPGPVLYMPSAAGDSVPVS
Method: RNA Bind-n-Seq
Molecule type: RNA
Sample: in vitro
Tested at: not given
Notes: RNA with constant flanks, human-mouse chimeric sites, ends assumed
Reference: input RNA pool
Direction: higher = stronger binding
Constant ends, left off below: GGGAGUUCUACAGUCCGACGAUC … CAACAGAGGAUUGAGCAUCA
| Strand | bound/input enrichment [ratio] |
| --- | --- |
| GUUGCCAGCUUCCGGUUCCGUUGGGCUAGCAAGCUCCCUGAGCUACGUGUCUCUACGUUUUAGGUGUGCCAUCCAACAAACAUGGAUCAGGUAAUGCAGUUUGUGGAGCCCAGCCGGCAG | 0.113 |
| ACCUCCCAGGCCUGGGACACCCCACCCCCGCUUUUUGGAAAGUUUUUGGCGUUUCUUUUCCUUCCCCAUACAAAGUGAUUACAGUUUAGAGUCUAUGGGUCUAUCGAAGGGCUUGACGGA | 0.629 |
| CAGGGCAUCAUCUCUCGUGCUGUUAGACACCUGUUCAAGAGUAUUGAUGAGAAAAAGACCUCAGCGAUUAAAAAUGGGCUUCCUGCUCCUGAAUUCAAAGUGAAUGCCCAGUUCCUAGAG | 0.218 |
| ACAGUUAUAUUGUUGAGUUUCAUUUUCAUAUAUUCUUAUGGUGUCUGCUUGCCUGUGACUUCUGGUAAAAUAAAAUAUUAAAAUUACAAUAUUUUAGCAUGGUAUUUAACAUUUUCUAAA | 1.23 |
| UAAAUUAGGGCUGCCGUCCGUUCUCACUCCCUGGGCUGCGGAAAGCCAGGCGGUUUUAUCUAGCUUAUACAAGGCUGCUGGUGUUCCCUCUUUUUUUCCACGAGGGUGUUUUUGGCUGCA | 1.9 |
| CAUGUAUCUGCAGUGCUUGAUGUGGACUACUCUCCCACUGGGAAGGAAUUUGUGUCUGCCAGCUUUGAUAAGUCUAUUAGAAUCUUUCCUGUGGACAAGAGCCGAAGCAGGGAAGUGUAU | 0.605 |
| ACAGUUAUAUUGUUGAGUUUCAUUUUCAUAUAUUCUUGUAGUGUCUGCUUGCCUGUGUCUUUUAGUAAAAUAAAAUAAGCCUUUGAAUUAGCAUGCUCAUGGUAUUUAACAUUUUCUAAA | 12.2 |
| AGAGAUAAGACAUCCAGGAACAUGCGAGGGUCACGGAUGAAUGGGUUGCCUAGCCCCACUCACAGCGCCCACUGUAGCUUCUACAGAACCAGAACCUUGCAGGCACUGAGUAAUGAGAAG | 0.246 |
| GUAAUGUUUAUUCAUUUAACUUAUUUUUAUAGCUAGAUAAAUAUUGUUAGUCUUAGACAAUAGCUCACAUUUUUUGAGAAGCAUGCCCUCCCUGUCCAUUUGUCUUAUAACAUGACCCAG | 13.6 |
| CCAAGUGAUUCAUCCCAAGGACAGGCCGCCCAGUCUGAUGCCUGGACUGAUGACAGUAUGGAAGGGCCUAGUCAAAAUGUUGAAGCUGAGUCAAUUCAGGAUGCCAUGAGUAUGGAAGAG | 0.183 |
| UCUUAACUUAUUCAUUUCUUAUUUUUAUAUAGCUAGAUAAAUAUUGUUAGUCUUAGACAAUAGCUCACAUUUUUUGAGAAGCAUGCCCUCCCUAUCCAUUUGUCUUAUAACAUGACCCAG | 56.8 |

Study 6
Target: Eukaryotic initiation factor 4A-I (EIF4A1, Homo sapiens, UniProt P60842, residues 1-406, full length assumed)
Sequence of UniProt P60842 (whole entry, looked up): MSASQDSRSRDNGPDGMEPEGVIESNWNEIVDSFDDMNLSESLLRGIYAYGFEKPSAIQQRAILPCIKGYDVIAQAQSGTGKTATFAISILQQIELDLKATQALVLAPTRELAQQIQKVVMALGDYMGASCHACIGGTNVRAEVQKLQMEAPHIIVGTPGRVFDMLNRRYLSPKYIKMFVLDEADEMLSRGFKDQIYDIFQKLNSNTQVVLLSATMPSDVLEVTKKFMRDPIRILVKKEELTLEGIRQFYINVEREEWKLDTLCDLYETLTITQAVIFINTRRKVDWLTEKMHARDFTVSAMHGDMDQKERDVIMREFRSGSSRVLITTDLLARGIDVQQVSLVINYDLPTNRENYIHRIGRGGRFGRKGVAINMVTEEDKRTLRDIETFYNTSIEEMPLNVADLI
Method: RNA Bind-n-Seq
Molecule type: RNA
Sample: in vitro
Tested at: 15 pmol
Notes: 4-mer, random 30-nt RNA, single round
Together with: DMSO vehicle, 2 mM AMP-PNP
Reference: input library
Direction: higher = stronger binding
| Strand | 4-mer enrichment [fold] |
| --- | --- |
| GUCU | 0.944 |
| GUCA | 1.34 |
| CGUG | 1.03 |
| AAUG | 1.05 |
| CUAU | 0.864 |
| GCGU | 0.98 |
| GAGU | 0.957 |
| GACU | 1.05 |
| UGUG | 0.763 |
| GCUU | 1.09 |
| ACAA | 1.05 |
| GAAA | 1.41 |

Study 7
Target: ABI1, truncated, D143A, DHFR fusion (Arabidopsis thaliana)
Method: DHFR PCA, deep sequencing
Sample: yeast
Notes: methotrexate growth selection, single substitutions
Together with: (+)-ABA 1.4 µM
Reference: wild-type fitted maximum
Direction: higher = stronger binding
Starting sequence: PYL1, truncated, DHFR fusion (Arabidopsis thaliana); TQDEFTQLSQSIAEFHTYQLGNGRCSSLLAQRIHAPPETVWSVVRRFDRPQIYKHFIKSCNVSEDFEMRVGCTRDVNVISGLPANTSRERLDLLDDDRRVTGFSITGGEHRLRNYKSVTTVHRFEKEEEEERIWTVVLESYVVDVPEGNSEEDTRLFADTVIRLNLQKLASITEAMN
| Variant | relative binding score |
| --- | --- |
| C25I | 32.5% |
| P146A | 25% |
| E127T | 60.9% |
| H34A | 56.6% |
| E152G | 24.4% |
| V136Q | -0.629% |
| P50V | -7.67% |
| T120G | -3.75% |
| E151H | 41% |
| L112Y | -4.35% |
| N61K | 74.2% |
| E4R | 28.6% |
| V145H | -18.2% |
| I133A | 78.9% |
| S27I | -9.13% |
| Y53I | -5.99% |
| F103E | -0.848% |
| Y18T | 11.8% |
| R99S | 5.76% |
| S42A | 52.2% |
| L28I | 55.5% |
| F56R | 3.46% |
| F56P | 0.195% |
| R163E | 13.8% |
| H110T | 33.7% |

A few entries again (study 2):
| Strand | E-score |
| --- | --- |
| CAAGAGAG | 0.117 |
| GTGCCCGA | 0.0282 |
| CTGACAAA | 0.127 |
| CGCGCGCG | 0.3 |
| AGGAGATG | -0.132 |
| ATTATCCG | 0.018 |
| GCAGCCCC | 0.188 |
